Assay results of several laboratories.
Each numbered part is a random draw from the data of one study; scales do not carry over between parts. Positions count from the first letter of the parent shown.

Set 1
Target: XBP1, bZIP domain (human)
Technique: DHFR protein complementation
Matrix: yeast
Setting: single substitutions, most at no-binding floor
Reference: wild-type JUN-FOS pair
Reading: higher = stronger binding
Starting sequence: JUN, bZIP domain (human); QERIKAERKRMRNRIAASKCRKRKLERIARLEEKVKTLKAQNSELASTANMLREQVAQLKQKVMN; partner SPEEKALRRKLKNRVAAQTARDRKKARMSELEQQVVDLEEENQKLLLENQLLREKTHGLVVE
| Change | binding fitness [natural log] |
| --- | --- |
| R53I | -1.64 |
| E44Y | -1.24 |
| A40H | -0.955 |
| L52P | -1.44 |
| E54R | -1.29 |
| A40F | -1.16 |
| A57V | -1.13 |
| L52E | -1.41 |
| V56L | -0.269 |
| L38W | -1.32 |
| R53P | -1.45 |
| A57N | -0.685 |
| V56A | -0.795 |
| R30M | -0.276 |
| V56N | -1.35 |
| S47M | -0.61 |
| L45P | -1.47 |

Set 2
Target: ABI1, truncated, D143A, DHFR fusion (Arabidopsis thaliana)
Technique: DHFR PCA, deep sequencing
Matrix: yeast
Setting: methotrexate growth selection, single substitutions
With: (+)-ABA 0.032 µM
Reference: wild-type fitted maximum
Reading: higher = stronger binding
Starting sequence: PYL1, truncated, DHFR fusion (Arabidopsis thaliana); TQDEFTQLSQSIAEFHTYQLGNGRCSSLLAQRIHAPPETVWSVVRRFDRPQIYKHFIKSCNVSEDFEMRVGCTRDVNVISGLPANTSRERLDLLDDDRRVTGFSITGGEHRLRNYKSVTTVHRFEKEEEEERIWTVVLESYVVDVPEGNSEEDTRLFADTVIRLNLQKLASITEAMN
| Change | relative binding score [%] |
| --- | --- |
| V136E | -4.55 |
| V76E | -3.56 |
| E67W | 3.41 |
| S26Q | -1.74 |
| V70C | 0.257 |
| I12Q | 5.47 |
| E14S | 2.28 |
| Y18S | 0.334 |
| K126T | 53 |
| S87G | -1.59 |
| P36V | 2.7 |
| L93N | 5.24 |
| V142H | 0.696 |
| R74Y | -3.96 |
| F66Q | 6.34 |

Set 3
Target: Histone acetyltransferase KAT6A, winged helix 2, GST fusion (KAT6A, Homo sapiens, UniProt Q92794, residues 85-181)
Technique: protein binding microarray
Form: double-stranded DNA, one strand shown
Matrix: in vitro
Concentration: not given
Setting: 8-mer, flanks averaged, mean of 2 arrays, mostly near background
Reference: not given
Reading: higher = stronger binding
Residues (chain): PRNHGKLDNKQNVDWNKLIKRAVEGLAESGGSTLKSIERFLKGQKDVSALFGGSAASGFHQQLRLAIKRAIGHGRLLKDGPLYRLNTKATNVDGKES
| Sequence | E-score |
| --- | --- |
| AGTACGTC | -0.12 |
| CACCCGGC | 0.0789 |
| ATACTAAT | 0.057 |
| CCCTCCCC | 0.198 |
| GAAGATTA | -0.0156 |
| GATCAGGC | -0.0546 |
| TAAAAATA | 0.217 |
| ATCGGGTA | -0.0948 |
| AACTGAGT | -0.136 |
| ACCTCCGG | 0.173 |
| AAGTTGTC | 0.0926 |
| GGGCACTA | -0.00741 |
| GACCATAC | -0.13 |
| CGCAAATA | 0.0432 |
| CGAGCAAC | 0.0755 |
| CCAGGGTA | -0.0242 |
| CAAGGGCG | 0.0923 |
| AGGATACG | -0.102 |
| GACACACC | 0.054 |
| ACCAAACT | -0.0848 |
| CTAAAAGA | -0.065 |
| TCGAACAA | 0.126 |
| AGAAATAT | 0.0132 |
| ATGGGAAC | 0.0514 |
| GCATTCAA | 0.136 |

Set 4
Target: CCNE1, cyclin fold, Cln2 fusion (human)
Technique: yeast growth competition, sequencing
Matrix: yeast
Setting: weak parent motif
Reference: not given
Reading: higher = stronger binding
Starting sequence: PKN2 docking peptide (human); VSAVQKLDFSDTM
| Change | normalised enrichment score |
| --- | --- |
| A3Q | 0.318 |
| V1M | 0.435 |
| T12D | 0.46 |
| T12P | 1.59 |
| A3R | -0.241 |
| M13H | 0.839 |
| A3K | -0.238 |
| L7I | -0.601 |
| D11K | 0.281 |
| L7F | 0.154 |
| T12Y | 1.03 |
| D8K | 0.823 |
| V4Q | -0.128 |
| D11L | 0.848 |
| F9W | 0.0649 |
| M13E | 1.21 |
| D8F | 0.823 |
| V4I | 0.34 |
